Results from different studies.
± gives the spread as reported. ≈ marks a conversion by molar mass, not a printed value.

Structure (SMILES)	organism	assay	test system	setting	how to read	measurement	result
CC[C@H](C)[C@H](NC(=O)[C@H](Cc1c[nH]c2ccccc12)NC(=O)[C@H](CCCNC(=N)N)NC(=O)[C@H](CCC(N)=O)NC(=O)[C@@H](NC(=O)[C@H](Cc1c[nH]c2ccccc12)NC(=O)[C@H](CCCNC(=N)N)NC(=O)[C@H](CCCNC(=N)N)NC(=O)[C@H](C)NC(=O)[C@H](C)NC(=O)[C@H](C)NC(=O)[C@@H](NC(=O)[C@H](CCCCN)NC(=O)[C@@H]1CCCN1C(=O)[C@H](CCCNC(=N)N)NC(=O)[C@H](Cc1c[nH]c2ccccc12)NC(=O)[C@H](CCCNC(=N)N)NC(=O)[C@H](CCCNC(=N)N)NC(=O)[C@@H](NC(=O)[C@H](Cc1c[nH]c2ccccc12)NC(=O)[C@H](CCCNC(=N)N)NC(=O)[C@H](CCC(N)=O)NC(=O)[C@@H](NC(=O)[C@H](Cc1c[nH]c2ccccc12)NC(=O)[C@H](CCCNC(=N)N)NC(=O)[C@@H](N)CCCNC(=N)N)C(C)C)[C@@H](C)CC)C(C)C)C(C)C)C(=O)N[C@@H](CCCNC(=N)N)C(=O)N[C@@H](CCCNC(=N)N)C(=O)N[C@@H](Cc1c[nH]c2ccccc12)C(=O)N[C@@H](CCCNC(=N)N)C(=O)N1CCC[C@H]1C(=O)N[C@@H](CCCCN)C(=O)N[C@H](C(N)=O)C(C)C	Fusarium	–	–	25 °C, metabolic activity and growth	–	inhibitory concentration	0.625 µM
CC(=O)[O-].CN1CCN2CCN(CC1)CCN(Cc1ccccc1)CC2.F[P-](F)(F)(F)(F)F.[Cu+2]	Leishmania donovani	–	THP-1-derived macrophages, intracellular amastigotes	–	–	IC50	> 20 µM
CN1CC(=O)N=C1N.C[C@H](CCC(=O)O)[C@H]1CC[C@H]2[C@@H]3[C@@H](O)C[C@@H]4C[C@H](O)CC[C@]4(C)[C@H]3CC[C@]12C	Staphylococcus epidermidis	–	TISTR 2172	1 mg per disc, 18 to 24 h, 37 °C, 6 mm disc	–	inhibition zone diameter	8.5 ± 0.6 mm
C[C@@H](O)[C@H](NC(=O)[C@H](CCC(=O)O)NC(=O)[C@H](Cc1ccccc1)NC(=O)[C@H](Cc1c[nH]c2ccccc12)NC(=O)[C@H](CCCCN)NC(=O)[C@H](CCCCN)NC(=O)[C@H](CCCCN)NC(=S)Nc1ccc2c(c1)C(=O)OC21c2ccc(O)cc2Oc2cc(O)ccc21)C(=O)N[C@@H](Cc1c[nH]c2ccccc12)C(=O)N[C@@H](Cc1ccccc1)C(=O)N[C@H](C(=O)N[C@@H](CCC(=O)O)C(=O)N[C@@H](Cc1c[nH]c2ccccc12)C(=O)N1CCC[C@H]1C(=O)N[C@@H](CCCCN)C(=O)N[C@@H](CCCCN)C(=O)N[C@@H](CCCCN)C(=O)N[C@@H](CCCCN)C(=O)O)[C@@H](C)O	Fusarium solani	–	–	10-fold MIC, 25 °C	–	duration of growth inhibition	4 h
Fc1ccc2nc3c4cccnc4c4ncccc4c3nc2c1.[Cl-].[Cl-].[Ru+2].c1ccncc1.c1ccncc1.c1ccncc1.c1ccncc1	Enterococcus faecalis	–	VRE ATCC 51299	LED irradiation 470 nm	–	MIC90	8 µM
Oc1cc(C(F)(F)F)ccc1-c1nc2c(C(F)(F)F)cc(C(F)(F)F)cc2[nH]1	Acinetobacter baumannii	colistin potentiator	AB 1F9, colistin-resistant	5 µM	–	colistin MIC	0.5 µg/mL
CNC(CC(C)C)C(=O)NC1C(=O)NC(CC(N)=O)C(=O)NC2C(=O)NC3C(=O)NC(C(=O)NC(C(=O)O)c4cc(O)cc(O)c4-c4cc3ccc4O)C(O)c3ccc(c(Cl)c3)Oc3cc2cc(c3OC2OC(CO)C(O)C(O)C2OC2CC(C)(NCc3ccc(-c4ccc(Cl)cc4)cc3)C(O)C(C)O2)Oc2ccc(cc2Cl)C1O (stereo not shown)	Enterococcus faecalis and Enterococcus faecium	–	VanA, 4 strains	–	relative to: vancomycin over cpd MIC	potency improvement	~100 fold
O=S(=O)(CCC(F)(F)F)N[C@H]1CC[C@H](Nc2ncc3c(-c4ccccn4)n[nH]c3n2)CC1	Leishmania donovani	–	promastigotes, LdBOB start clone	–	relative to: wild type	EC50 fold change	1
CCCCn1c2ccccc2c2ccnc(-c3ccc(OC)cc3)c21	Echinococcus granulosus sensu stricto	–	protoscoleces	48 h	–	LC50	66.6 ± 3.09 µM
CCCN1CCNC1=[S+][Ag-3]([O][N+](=O)[O-])([P+](c1ccccc1)(c1ccccc1)c1ccccc1)[P+](c1ccccc1)(c1ccccc1)c1ccccc1	Staphylococcus epidermidis	–	MTCC 435, DMSO	0.1 mL of 50 mg/mL in 8 mm well, 18 to 24 h	–	inhibition zone diameter	24 mm
[Cl-].[Cl-].[Mn+2].c1ccc(CN2CCNCCN(Cc3ccccc3)CCNCC2)cc1	Leishmania donovani	parasite growth, resazurin	–	72 h, promastigote	–	IC90	9.12 µM
CC1N=C(CCCCCCCCCCC2=CC(CCCCCCCCCCC3=NC(C)C(O)CC3)C3CCCN3C2)CCC1O (stereo not shown)	Leishmania donovani	Alamar Blue	promastigotes	72 h, 26 °C	–	IC90	1.67 ± 0.21 µg/mL
COc1ccc(-c2oc3ccc(-c4cc(OC)c(OC)c(OC)c4)cc3c2C#CC2(O)CCCCC2)cc1	hepatitis C virus	HCV replicon replication	HCV genotype 1b subgenomic replicon cells	10 µM	relative to: DMSO	remaining activity	106%
O=[N+]([O-])c1ccc(C2=[N+]([O-])c3ccccc3N3CCCN=C23)cc1	Porphyromonas gingivalis	microbial growth	ATCC33277	–	–	MIC	≤ 0.06 µg/mL
COc1ccc(-c2oc3ccc(-c4cc(OC)c(OC)c(OC)c4)cc3c2C#CC(C)(C)O)cc1	hepatitis C virus	viral entry, HCV pseudoparticle entry	genotype 1a	10 µM	relative to: DMSO	remaining activity	83.7%
[O-][N+]1=C(c2ccccc2)C2=NCCN2c2ccccc21	Bacteroides fragilis	microbial growth	ATCC25285	–	–	MIC	0.125 µg/mL (≈ 0.475 µM)
Cc1cc(C(=O)Nc2nc3cccc(C)c3n2[C@H]2CCCCN(C(=O)/C=C/CN(C)C)C2)ccn1	Trypanosoma brucei brucei	–	2T1 overexpressing CLK1 C215S	72 h	relative to: parental 2T1	EC50 shift	> 60 fold
CC(=O)[O-].F[P-](F)(F)(F)(F)F.[Co+2].c1ccc(CN2CCCNCCN(Cc3ccccc3)CCCNCC2)cc1	Leishmania donovani	parasite growth	THP-1 macrophages	intracellular amastigotes	–	IC90	> 15 µM
CC(C)C[C@H](NC(=O)[C@H](CC(=O)O)NC(=O)[C@H](Cc1ccc(O)cc1)NC(=O)[C@H](Cc1ccccc1)NC(=O)[C@H](CS)NC(=O)[C@@H]1CCCN1C(=O)[C@H](CCCNC(=N)N)NC(=O)[C@H](CC(N)=O)NC(=O)[C@@H](NC(=O)[C@H](CCCNC(=N)N)NC(=O)[C@H](CS)NC(=O)[C@@H](N)[C@@H](C)O)[C@@H](C)O)C(=O)N[C@@H](CC(=O)O)C(=O)N[C@@H](CC(C)C)C(=O)N[C@@H](CC(N)=O)C(=O)N[C@H](C(=O)N[C@@H](CS)C(=O)N[C@@H](CCCNC(=N)N)C(=O)N[C@@H](CS)C(=O)N[C@@H](CO)C(=O)O)C(C)C	Escherichia coli, Acinetobacter baumannii, Pseudomonas aeruginosa	–	–	–	–	MBC	128 µM (≈ 305 µg/mL)
CC(=O)[O-].F[P-](F)(F)(F)(F)F.[Ni+2].c1ccc(CN2CCN3CCN(CC2)CCN(Cc2ccccc2)CC3)cc1	Leishmania donovani	parasite growth, resazurin	–	72 h, amastigote	–	IC50	> 20 µM
CC[C@H](C)[C@H](NC(=O)[C@H](CCCCN)NC(=O)[C@H](CCCCN)NC(=O)[C@H](CC(C)C)NC(=O)[C@H](CCCCN)NC(=O)[C@H](CCC(=O)O)NC(=O)[C@H](CCCCN)NC(=O)[C@@H](NC(=O)[C@H](CCCCN)NC(=O)[C@H](CC(N)=O)NC(=O)[C@H](CCCNC(=N)N)NC(=O)[C@H](Cc1ccccc1)NC(=O)[C@H](CCCCN)NC(=O)[C@H](CCCNC(=N)N)NC(=O)[C@H](CC(C)C)NC(=O)[C@H](CCCNC(=N)N)NC(=O)[C@H](CCCCN)NC(=O)[C@H](CCCNC(=N)N)NC(=O)[C@@H](N)CC(C)C)[C@@H](C)CC)C(=O)NCC(=O)N[C@@H](CCC(N)=O)C(=O)N[C@@H](CCCCN)C(=O)N[C@H](C(=O)N[C@@H](CCC(N)=O)C(=O)NCC(=O)N[C@@H](Cc1ccccc1)C(=O)N[C@H](C(=O)N1CCC[C@H]1C(=O)N[C@@H](CCCCN)C(=O)N[C@@H](CC(C)C)C(=O)O)C(C)C)[C@@H](C)CC	Staphylococcus epidermidis	inhibition zone	penicillin-resistant P1389	–	–	lethal concentration	1.15 µM
CCn1c(-c2ccc(-c3ccc(F)cc3)cc2)c(-c2ccc(-c3ccc(F)cc3)cc2)n(CC)c1=[Se+][Au-][P+](CC)(CC)CC.[Cl-]	Acinetobacter baumannii	bacterial growth, checkerboard microdilution	carbapenem-resistant	with: imipenem	–	FIC index	0.5
CC(=O)[O-].F[P-](F)(F)(F)(F)F.[Co+2].c1ccc(CN2CCCN3CCN(CCCN(Cc4ccccc4)CC3)CC2)cc1	Leishmania donovani	parasite growth	THP-1 macrophages	intracellular amastigotes	–	IC90	> 15 µM
CC(=O)Oc1ccc(Cn2cc(F)c(=O)[nH]c2=O)cc1C1OC(c2ccccc2)=NN1C(C)=O (stereo not shown)	varicella-zoster virus	plaque formation, plaque reduction	HEL fibroblasts, TK+ strain OKA	–	–	EC50	> 100 µM
CCC(NC(=O)NNS(=O)(=O)c1ccc(C)cc1)(C(F)(F)F)C(F)(F)F	human alphaherpesvirus 1	–	Vero	concentration not given	–	antiviral activity	inactive

A few entries again:
Structure (SMILES)	organism	assay	test system	setting	how to read	measurement	result
[Cl-].[Cl-].[Mn+2].c1ccc(CN2CCNCCN(Cc3ccccc3)CCNCC2)cc1	Leishmania donovani	parasite growth, resazurin	–	72 h, promastigote	–	IC90	9.12 µM
